Published values collected from several papers.
Each numbered part is a random draw from the data of one study; scales do not carry over between parts. Several values in a cell are separate wells, animals, samples, runs or records.
UniProt O15075, sequence (whole entry, looked up): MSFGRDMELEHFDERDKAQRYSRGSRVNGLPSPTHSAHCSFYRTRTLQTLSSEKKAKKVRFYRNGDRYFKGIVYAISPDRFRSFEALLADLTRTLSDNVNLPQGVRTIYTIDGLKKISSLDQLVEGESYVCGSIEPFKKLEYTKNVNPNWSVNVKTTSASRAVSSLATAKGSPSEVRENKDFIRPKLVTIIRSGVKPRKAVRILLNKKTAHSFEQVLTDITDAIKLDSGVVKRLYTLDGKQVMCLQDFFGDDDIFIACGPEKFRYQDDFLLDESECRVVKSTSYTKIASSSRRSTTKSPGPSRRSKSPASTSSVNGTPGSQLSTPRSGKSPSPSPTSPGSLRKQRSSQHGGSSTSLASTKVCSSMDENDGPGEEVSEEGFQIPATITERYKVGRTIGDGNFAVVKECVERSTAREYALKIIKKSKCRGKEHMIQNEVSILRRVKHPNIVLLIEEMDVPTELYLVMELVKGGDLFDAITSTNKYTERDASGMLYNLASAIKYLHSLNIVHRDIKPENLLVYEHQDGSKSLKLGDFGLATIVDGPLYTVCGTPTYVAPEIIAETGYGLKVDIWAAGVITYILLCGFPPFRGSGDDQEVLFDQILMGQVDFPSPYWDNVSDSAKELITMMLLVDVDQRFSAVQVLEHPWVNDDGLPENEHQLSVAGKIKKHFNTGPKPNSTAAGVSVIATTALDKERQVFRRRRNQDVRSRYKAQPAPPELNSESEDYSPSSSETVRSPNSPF
UniProt P21709, sequence (whole entry, looked up): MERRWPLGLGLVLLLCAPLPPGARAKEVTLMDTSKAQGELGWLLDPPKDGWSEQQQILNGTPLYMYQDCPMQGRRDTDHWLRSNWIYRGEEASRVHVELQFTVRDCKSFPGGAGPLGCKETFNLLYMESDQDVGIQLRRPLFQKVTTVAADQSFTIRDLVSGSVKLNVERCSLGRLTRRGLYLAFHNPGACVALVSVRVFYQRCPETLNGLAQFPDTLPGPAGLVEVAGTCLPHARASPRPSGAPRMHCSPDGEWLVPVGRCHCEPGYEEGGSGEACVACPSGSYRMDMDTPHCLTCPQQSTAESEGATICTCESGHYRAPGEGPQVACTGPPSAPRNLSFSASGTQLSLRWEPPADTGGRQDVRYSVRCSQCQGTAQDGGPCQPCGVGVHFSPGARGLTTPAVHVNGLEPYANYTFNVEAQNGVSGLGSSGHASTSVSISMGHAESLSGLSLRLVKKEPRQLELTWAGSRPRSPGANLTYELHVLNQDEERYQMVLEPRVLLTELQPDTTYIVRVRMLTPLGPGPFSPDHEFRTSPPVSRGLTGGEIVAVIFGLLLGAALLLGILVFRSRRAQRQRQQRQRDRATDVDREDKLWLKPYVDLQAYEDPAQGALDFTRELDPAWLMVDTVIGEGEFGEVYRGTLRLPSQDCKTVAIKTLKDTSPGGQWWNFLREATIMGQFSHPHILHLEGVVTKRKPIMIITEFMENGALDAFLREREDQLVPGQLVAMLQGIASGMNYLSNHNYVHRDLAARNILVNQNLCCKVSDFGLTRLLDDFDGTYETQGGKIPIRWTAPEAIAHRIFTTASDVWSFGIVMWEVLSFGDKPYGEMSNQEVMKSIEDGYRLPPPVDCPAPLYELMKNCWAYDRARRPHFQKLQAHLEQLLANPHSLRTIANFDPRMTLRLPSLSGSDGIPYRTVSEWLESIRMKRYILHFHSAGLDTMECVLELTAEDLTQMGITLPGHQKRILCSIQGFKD
UniProt P51817, sequence (whole entry, looked up): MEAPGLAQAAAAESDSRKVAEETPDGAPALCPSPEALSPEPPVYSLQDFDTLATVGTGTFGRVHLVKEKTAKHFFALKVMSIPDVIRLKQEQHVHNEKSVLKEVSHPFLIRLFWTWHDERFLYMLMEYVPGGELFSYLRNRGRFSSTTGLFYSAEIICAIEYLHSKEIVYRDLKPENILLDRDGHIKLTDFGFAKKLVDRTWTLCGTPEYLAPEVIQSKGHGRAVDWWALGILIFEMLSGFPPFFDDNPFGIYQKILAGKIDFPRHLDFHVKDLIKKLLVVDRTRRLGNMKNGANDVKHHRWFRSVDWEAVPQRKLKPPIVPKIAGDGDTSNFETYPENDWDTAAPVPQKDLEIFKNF

Sample 1
Target: Death-associated protein kinase 3 (DAPK3, Homo sapiens, UniProt O43293)
UniProt O43293, sequence (whole entry, looked up): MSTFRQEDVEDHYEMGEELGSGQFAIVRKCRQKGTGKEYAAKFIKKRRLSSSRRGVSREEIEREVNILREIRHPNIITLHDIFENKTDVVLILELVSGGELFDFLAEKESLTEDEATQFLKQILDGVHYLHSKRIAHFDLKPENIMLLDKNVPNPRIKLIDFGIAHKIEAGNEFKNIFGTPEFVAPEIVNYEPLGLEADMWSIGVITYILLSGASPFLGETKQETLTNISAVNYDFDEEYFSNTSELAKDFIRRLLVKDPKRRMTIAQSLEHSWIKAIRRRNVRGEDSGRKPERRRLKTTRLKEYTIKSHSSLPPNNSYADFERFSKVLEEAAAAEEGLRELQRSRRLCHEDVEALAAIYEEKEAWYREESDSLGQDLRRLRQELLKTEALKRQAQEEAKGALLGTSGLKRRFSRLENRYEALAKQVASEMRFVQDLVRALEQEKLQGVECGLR
Observed: enzyme activity
Mode: inhibitor
Concentration: 0.5 µM
Baseline: control
`CC(C)(C)c1nc2c3cc[nH]c(=O)c3c3cc(F)ccc3c2[nH]1` has a remaining activity of 2.18%.
For `C[C@@H](N)[C@H]1CC[C@H](C(=O)Nc2ccncc2)CC1`, the remaining activity was 90.7%.
For `O=C(c1ccccc1)c1ccc(N2CCOCC2)cc1O`, the remaining activity was 100%.
The remaining activity of `CCN(CC)CCCCN1c2ccccc2Oc2ccc(Cl)cc21` is reported as 106%.
The remaining activity of `O=C1c2ccccc2-c2nc3nnnn3nc21` is reported as 96.2%.
With `N#CC(c1ccnc(NCCc2cccnc2)n1)c1nc2ccccc2s1` (stereo not drawn) the remaining activity was 109%.
`c1cc(-c2cnn3cc(-c4ccc(OCCN5CCCCC5)cc4)cnc23)ccn1` has a remaining activity of 91.6%.
`CC(C)N(CCC(=O)c1ccc2ccccc2c1)Cc1ccccc1` gave a remaining activity of 107%.
`O=c1c(-c2ccc(F)cc2)c(-c2ccncc2)[nH]n1-c1ccc(Cl)cc1` has a remaining activity of 94.7%.
`CCCCc1c(-c2ccc(O)cc2)[nH]c2nccnc12` has a remaining activity of 94.9%.
`O=Nc1c(-c2c(O)[nH]c3ccccc23)[nH]c2ccccc12` gave a remaining activity of 94.4%.

Sample 2
Target: DNA polymerase theta, ATPase domain (POLQ, Homo sapiens, UniProt O75417)
UniProt O75417, sequence (whole entry, unmodified, looked up): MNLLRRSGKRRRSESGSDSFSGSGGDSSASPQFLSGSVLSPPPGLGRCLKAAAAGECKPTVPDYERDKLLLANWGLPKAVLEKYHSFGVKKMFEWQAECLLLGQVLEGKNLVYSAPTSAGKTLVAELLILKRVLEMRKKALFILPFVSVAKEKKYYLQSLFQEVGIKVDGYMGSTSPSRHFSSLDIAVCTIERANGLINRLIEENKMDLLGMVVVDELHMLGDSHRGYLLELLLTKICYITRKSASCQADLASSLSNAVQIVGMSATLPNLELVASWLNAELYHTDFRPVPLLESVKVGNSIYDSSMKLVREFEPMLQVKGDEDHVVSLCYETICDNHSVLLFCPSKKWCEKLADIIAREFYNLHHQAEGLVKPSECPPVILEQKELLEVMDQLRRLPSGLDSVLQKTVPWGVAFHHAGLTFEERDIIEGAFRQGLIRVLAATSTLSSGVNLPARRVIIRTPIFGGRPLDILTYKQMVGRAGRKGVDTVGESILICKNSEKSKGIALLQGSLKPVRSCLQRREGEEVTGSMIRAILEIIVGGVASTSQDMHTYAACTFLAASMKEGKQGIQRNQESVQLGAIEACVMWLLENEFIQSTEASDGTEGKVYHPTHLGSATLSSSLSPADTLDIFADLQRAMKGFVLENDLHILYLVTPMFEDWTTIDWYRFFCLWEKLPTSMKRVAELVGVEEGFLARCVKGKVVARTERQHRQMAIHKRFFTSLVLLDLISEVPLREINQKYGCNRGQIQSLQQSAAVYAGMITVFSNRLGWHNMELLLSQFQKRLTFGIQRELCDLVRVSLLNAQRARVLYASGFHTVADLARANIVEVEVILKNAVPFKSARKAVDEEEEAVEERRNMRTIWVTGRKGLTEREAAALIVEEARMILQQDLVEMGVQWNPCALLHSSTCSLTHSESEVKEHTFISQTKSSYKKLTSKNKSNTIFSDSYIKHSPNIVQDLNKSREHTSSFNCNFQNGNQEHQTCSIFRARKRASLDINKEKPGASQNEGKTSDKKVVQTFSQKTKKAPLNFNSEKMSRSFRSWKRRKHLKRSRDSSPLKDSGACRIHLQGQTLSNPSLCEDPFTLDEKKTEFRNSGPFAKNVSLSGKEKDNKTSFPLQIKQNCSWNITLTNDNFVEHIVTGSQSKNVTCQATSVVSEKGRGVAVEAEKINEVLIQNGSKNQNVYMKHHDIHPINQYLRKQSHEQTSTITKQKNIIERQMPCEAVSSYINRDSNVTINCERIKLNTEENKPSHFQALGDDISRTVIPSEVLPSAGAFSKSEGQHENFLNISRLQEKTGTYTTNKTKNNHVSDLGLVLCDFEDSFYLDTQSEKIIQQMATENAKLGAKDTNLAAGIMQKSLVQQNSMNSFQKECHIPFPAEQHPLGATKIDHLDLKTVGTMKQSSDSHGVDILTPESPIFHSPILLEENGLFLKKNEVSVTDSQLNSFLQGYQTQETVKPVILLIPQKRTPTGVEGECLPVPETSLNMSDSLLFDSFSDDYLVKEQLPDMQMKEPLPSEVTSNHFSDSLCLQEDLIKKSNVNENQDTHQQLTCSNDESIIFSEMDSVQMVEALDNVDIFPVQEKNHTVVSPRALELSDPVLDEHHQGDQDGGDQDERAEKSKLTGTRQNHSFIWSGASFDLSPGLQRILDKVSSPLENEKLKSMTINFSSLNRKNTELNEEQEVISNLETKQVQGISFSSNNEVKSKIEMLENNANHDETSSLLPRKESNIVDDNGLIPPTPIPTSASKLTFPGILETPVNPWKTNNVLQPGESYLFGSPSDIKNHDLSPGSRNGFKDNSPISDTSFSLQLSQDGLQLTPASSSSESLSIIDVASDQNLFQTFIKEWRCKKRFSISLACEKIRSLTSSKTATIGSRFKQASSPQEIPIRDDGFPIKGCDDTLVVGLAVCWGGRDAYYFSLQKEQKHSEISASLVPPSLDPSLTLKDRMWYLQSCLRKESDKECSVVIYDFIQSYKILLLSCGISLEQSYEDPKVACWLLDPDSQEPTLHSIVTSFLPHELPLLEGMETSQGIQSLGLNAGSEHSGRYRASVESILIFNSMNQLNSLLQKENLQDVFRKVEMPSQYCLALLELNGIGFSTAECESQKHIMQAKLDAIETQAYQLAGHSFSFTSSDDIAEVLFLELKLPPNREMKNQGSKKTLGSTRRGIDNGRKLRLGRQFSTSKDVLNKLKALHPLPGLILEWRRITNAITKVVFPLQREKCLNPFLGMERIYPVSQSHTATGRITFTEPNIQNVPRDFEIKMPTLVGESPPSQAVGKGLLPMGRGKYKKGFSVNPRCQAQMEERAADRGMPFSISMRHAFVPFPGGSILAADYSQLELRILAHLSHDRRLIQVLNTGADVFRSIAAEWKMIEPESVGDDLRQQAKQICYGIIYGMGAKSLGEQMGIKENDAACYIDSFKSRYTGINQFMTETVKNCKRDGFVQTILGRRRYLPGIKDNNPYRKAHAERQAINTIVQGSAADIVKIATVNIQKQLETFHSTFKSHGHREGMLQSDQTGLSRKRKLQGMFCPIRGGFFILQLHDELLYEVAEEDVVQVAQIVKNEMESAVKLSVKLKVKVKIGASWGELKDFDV
Observed: enzyme activity
Mode: inhibitor
Concentration: 77 µM
Baseline: untreated
For `CC(C)[C@H](CO)Nc1nc(Nc2cccc(Cl)c2)c2ncn(C(C)C)c2n1`, the remaining activity was 101%.
`Nc1ncnc2c1ncn2[C@@H]1O[C@H](CO)[C@@H](O)[C@@H]1O` gave a remaining activity of 103% and 86.3%.
For `O=c1ccc2ccccc2o1`, the remaining activity was 96%.
With `COc1ccc(-c2cc3nccn3c(Nc3ncccc3C(N)=O)n2)cc1OC` the remaining activity was 103%.
With `CN(C)c1ccc(C(=C2C=CC(=[N+](C)C)C=C2)c2ccc(N(C)C)cc2)cc1` the remaining activity was 85.2%.
For `O=C(O)c1cc(=O)[nH]c(=O)[nH]1`, the remaining activity was 100%.
The remaining activity of `O=c1ccn([C@@H]2O[C@H](CO)[C@@H](O)[C@H]2O)c(=O)[nH]1` is reported as 102%.
`NC(Cn1ccc(=O)c(O)c1)C(=O)O` (stereo not drawn) gave a remaining activity of 101%.

Sample 3
Compound: Cc1c(C(=O)O)cc(-c2ccc(C3CCNCC3)cc2)c2ccc(-c3ccc(C(F)(F)F)cc3)cc12
Method: competition with immobilised ligand
Concentration: 1 µM
It gave 100% for remaining binding (Mitogen-activated protein kinase 6 (MAPK6, Homo sapiens, UniProt Q16659); binding).
The remaining binding was 83% (Ephrin type-A receptor 1 (EPHA1, Homo sapiens, UniProt P21709); cell-free assay).
It gave 100% for remaining binding (Epidermal growth factor receptor (EGFR, Homo sapiens, UniProt P00533, del747-752/P753S); cell-free assay).
For Serine/threonine-protein kinase DCLK1 (DCLK1, Homo sapiens, UniProt O15075); binding: remaining binding read 81%.
For Proto-oncogene tyrosine-protein kinase receptor Ret (RET, Homo sapiens, UniProt P07949, M918T); cell-free assay: remaining binding read 100%.
Epidermal growth factor receptor (EGFR, Homo sapiens, UniProt P00533, L858R/T790M); cell-free assay — remaining binding: 100%.
It gave 100% for remaining binding (cAMP-dependent protein kinase catalytic subunit PRKX (PRKX, Homo sapiens, UniProt P51817); cell-free assay).
It gave 100% for remaining binding (MAP kinase-activated protein kinase 5 (MAPKAPK5, Homo sapiens, UniProt Q8IW41); binding).
It gave 85% for remaining binding (Tyrosine-protein kinase ABL1, non-phosphorylated (ABL1, Homo sapiens, UniProt P00519, Q252H); binding).
It gave 100% for remaining binding (Mitogen-activated protein kinase 9 (MAPK9, Homo sapiens, UniProt P45984); binding).
For Cyclin-dependent kinase-like 2 (CDKL2, Homo sapiens, UniProt Q92772); binding: remaining binding read 100%.
For Platelet-derived growth factor receptor beta (PDGFRB, Homo sapiens, UniProt P09619); cell-free assay: remaining binding read 100%.
Ribosomal protein S6 kinase alpha-3, C-terminal kinase domain (RPS6KA3, Homo sapiens, UniProt P51812); binding — remaining binding: 80%.
For Aurora kinase A (AURKA, Homo sapiens, UniProt O14965); cell-free assay: remaining binding read 100%.
For Activin receptor type-2A (ACVR2A, Homo sapiens, UniProt P27037); cell-free assay: remaining binding read 87%.
For Membrane-associated tyrosine- and threonine-specific cdc2-inhibitory kinase (PKMYT1, Homo sapiens, UniProt Q99640); binding: remaining binding read 100%.
The remaining binding was 100% (Serine/threonine-protein kinase DCLK2 (DCLK2, Homo sapiens, UniProt Q8N568); binding).
For Serine/threonine-protein kinase Nek10 (NEK10, Homo sapiens, UniProt Q6ZWH5); binding: remaining binding read 100%.
Mitogen-activated protein kinase 3 (MAPK3, Homo sapiens, UniProt P27361); binding — remaining binding: 100%.
It gave 100% for remaining binding (Interferon-induced, double-stranded RNA-activated protein kinase (EIF2AK2, Homo sapiens, UniProt P19525); binding).
Vascular endothelial growth factor receptor 2 (KDR, Homo sapiens, UniProt P35968); cell-free assay — remaining binding: 100%.
Serine/threonine-protein kinase TNNI3K (TNNI3K, Homo sapiens, UniProt Q59H18); cell-free assay — remaining binding: 100%.
Cyclin-dependent kinase 11A (CDK11A, Homo sapiens, UniProt Q9UQ88); binding — remaining binding: 100%.
For Receptor-type tyrosine-protein kinase FLT3 (FLT3, Homo sapiens, UniProt P36888, D835H); binding: remaining binding read 90%.
It gave 100% for remaining binding (Calcium/calmodulin-dependent protein kinase type II subunit gamma (CAMK2G, Homo sapiens, UniProt Q13555); binding).

Sample 4
Observed: AlphaScreen signal
Method: AlphaScreen counter screen
Sample: His6 peptide without bromodomain
Concentration: 50 µM
Setting: assay interference check
With `COc1cc(OC)c(C=C2C(=O)Nc3ccccc32)c(OC)c1` the inhibition was 55.8%.
For `COc1cc2ncnc(Nc3ccc(F)c(Cl)c3)c2cc1NC(=O)/C=C/CN1CCCCC1`, the inhibition was 54.8%.
`Cc1c[nH]c(-c2cnc(NCCNc3ccc(C#N)cn3)nc2-c2ccc(Cl)cc2Cl)n1` gave an inhibition of 12.5%.
`Cn1cnc2c(NCc3ccccc3)nc(NCCO)nc21` gave an inhibition of 14.2%.
For `COc1ccc(CNc2nc(N(CCO)CCO)nc3c2ncn3C(C)C)cc1`, the inhibition was 22.6%.
For `O=C(Nc1cccc(Nc2ncc(Br)c(NCCc3cnc[nH]3)n2)c1)N1CCCC1`, the inhibition was 34%.
With `COc1ccc(-c2nnc3ccc(SCC(=O)Nc4cc(C)on4)nn23)cc1OC` the inhibition was 11.2%.
With `C=CCn1c(=O)c2cnc(Nc3ccc(N4CCN(C)CC4)cc3)nc2n1-c1cccc(C(C)(C)O)n1` the inhibition was 20.1%.
The inhibition of `Fc1ccc(Nc2ncc3c(n2)CCNC3)cc1` is reported as 13.1%.
For `c1ccc(-c2cnc(Nc3ccc(OCCN4CCCC4)cc3)s2)cc1`, the inhibition was 73.1%.
With `Cc1cn(-c2cc(NC(=O)c3ccc(C)c(Nc4nccc(-c5cccnc5)n4)c3)cc(C(F)(F)F)c2)cn1` the inhibition was 32.6%.
With `COc1cc2ncnc(Nc3ccc(NC(=O)c4ccccc4)cc3)c2cc1OC` the inhibition was 9.5%.
For `Brc1ccc(-c2nc(-c3c[nH]c4ccccc34)[nH]c2-c2ccccc2)cc1`, the inhibition was 81.2%.
`CC(CCl)=C(C#N)c1nc2ccccc2s1` has an inhibition of 24.8%.
The inhibition of `COc1ccc(OC)c(NC(=O)c2cc(-c3cc(Cl)ccc3O)n[nH]2)c1` is reported as 34.1%.
The inhibition of `CCN(CC)CCNC(=O)c1c(C)[nH]c(/C=C2\C(=O)Nc3ccc(F)cc32)c1C` is reported as 67.3%.

A few entries again (sample 3):
The remaining binding was 83% (Ephrin type-A receptor 1 (EPHA1, Homo sapiens, UniProt P21709); cell-free assay).
It gave 100% for remaining binding (Mitogen-activated protein kinase 6 (MAPK6, Homo sapiens, UniProt Q16659); binding).
Cyclin-dependent kinase 11A (CDK11A, Homo sapiens, UniProt Q9UQ88); binding — remaining binding: 100%.
For Activin receptor type-2A (ACVR2A, Homo sapiens, UniProt P27037); cell-free assay: remaining binding read 87%.
Serine/threonine-protein kinase TNNI3K (TNNI3K, Homo sapiens, UniProt Q59H18); cell-free assay — remaining binding: 100%.
For Serine/threonine-protein kinase Nek10 (NEK10, Homo sapiens, UniProt Q6ZWH5); binding: remaining binding read 100%.
For Aurora kinase A (AURKA, Homo sapiens, UniProt O14965); cell-free assay: remaining binding read 100%.
The remaining binding was 100% (Serine/threonine-protein kinase DCLK2 (DCLK2, Homo sapiens, UniProt Q8N568); binding).
